Experimental data of several laboratories.
Parts stem from different laboratories: compare values within a part only. Values joined by “and” are separate records of one study, mostly repeats; a detail may differ.

Sample 1 — action: inhibitor
Target: Replicase polyprotein 1ab, nsp14 (rep, Severe acute respiratory syndrome coronavirus 2, UniProt P0DTD1)
For `Cc1c(C(=O)C(=O)N2CCn3nccc3C2)cc(C(=O)NCc2cccnc2N2CCCC2)n1C`, the IC50 was > 6250 nM.
`Cc1c(S(=O)(=O)N2CCc3n[nH]cc3C2)cc(C(=O)NCc2c(F)ccc3cnn(C)c23)n1C` has an IC50 of 0.2 nM.
For `CCC1CCN(S(=O)(=O)c2cc(C(=O)NCc3ccccc3OC)n(C)c2C)CC1`, the IC50 was 540 nM.
The IC50 of `COc1ccccc1CNC(=O)c1cc(S(=O)(=O)N2CCn3nccc3C2)c(C)n1C` is reported as 32 nM and 11 nM.
`COc1ccccc1CNC(=O)c1cc(S(=O)(=O)N2CCC(C)CC2)c(C)[nH]1` has an IC50 of > 6250 nM.

Sample 2
SMILES: CO/N=C(\C(=O)N[C@@H]1C(=O)N2C(C(=O)O)=C(COC(C)=O)CS[C@H]12)c1csc(N)n1
For Pseudomonas aeruginosa; clinical isolate RKI-No_598/16: MIC read > 16 µg/mL.
Citrobacter freundii; clinical isolate RKI-No_604/16 — MIC: > 16 µg/mL.
It gave > 16 µg/mL for MIC (Pseudomonas aeruginosa; clinical isolate RKI-No_615/15).
It gave > 16 µg/mL for MIC (Pseudomonas aeruginosa; clinical isolate RKI-No_482/15).
Pseudomonas aeruginosa; clinical isolate RKI-No_479/15 — MIC: > 16 µg/mL.
For Pseudomonas aeruginosa; clinical isolate RKI-No_130/15: MIC read > 16 µg/mL.
For Pseudomonas aeruginosa; clinical isolate RKI-No_597/16: MIC read > 16 µg/mL.
It gave > 16 µg/mL for MIC (Pseudomonas aeruginosa; clinical isolate RKI-No_502/15).

Sample 3 — host: healthy volunteers; setting: single ascending dose; reference: placebo
Structure (SMILES): Fc1ccccc1Cc1nc(-c2nc(C(F)(F)F)n[nH]2)cn2ccnc12
The “smooth pursuit eye movements” was -2.76% (3 mg).
It gave -0.64% for “smooth pursuit eye movements” (20 mg).
The “smooth pursuit eye movements” was -0.33% (30 mg).
The “smooth pursuit eye movements” was -0.97% (0.3 mg).

Single results of other studies
`N#CCC1CCN(c2nc(Nc3ccc(N4CCC(O)CC4)cc3)c3c(=O)[nH]ncc3n2)CC1` — result for “IL-18 level difference”: -1.54 (vs placebo, Olink multiplex; human, serum; 40 mg, day 29, unit not given; reference: placebo).

For quick reference, copied from above (sample 3):
The “smooth pursuit eye movements” was -0.97% (0.3 mg).
It gave -0.64% for “smooth pursuit eye movements” (20 mg).
The “smooth pursuit eye movements” was -0.33% (30 mg).
